Measured values from different studies.

SMILES | matrix | concentration | time | pH | Papp
O=S1(=O)C=Cc2ccc(NCc3ccc(O)cc3)cc21 | PAMPA-BBB |  |  | pH 7.4 | 12.8 ×10⁻⁶ cm/s
CCCCCCCCCOC(=O)c1ccc(O)cc1 | PAMPA | 5 µM |  | pH 7.4 | 3.06 ×10⁻⁶ cm/s
O=S1(=O)C=Cc2ccc(NCc3cccc(O)c3)cc21 | PAMPA-BBB |  |  | pH 7.4 | 16 ×10⁻⁶ cm/s
Cc1cc(C(=O)N[C@@H](CC(=O)NC(C)(C)C)C(=O)NCCNC(=O)c2cc(-c3ccccc3)ccn2)no1 | PAMPA |  |  | pH 5 | 22 ×10⁻⁶ cm/s
CN(C)C(=O)c1ccnc(N2Cc3cn(Cc4cc(F)cc(F)c4)nc3C2)n1 | MDCK-MDR1 |  |  |  | 30 ×10⁻⁶ cm/s
COc1ccccc1CNc1ccc2c(c1)S(=O)(=O)C=C2 | PAMPA-BBB |  |  | pH 7.4 | 12.7 ×10⁻⁶ cm/s
C/C(N)=N/C(=N\S(=O)(=O)c1ccc(C(F)(F)F)cc1)N1C[C@H](c2ccccc2)C(c2ccc(Cl)cc2)=N1 | PAMPA |  |  | pH 7.4 | 726 ×10⁻⁶ cm/s
CC[C@H](C)[C@@H]1NC(=O)[C@H](Cc2ccccc2)NC(=O)CSC[C@@H](C(N)=O)NC(=O)[C@H](CC(N)=O)NC(=O)[C@H](Cc2c[nH]cn2)NC(=O)[C@H](Cc2ccc(O)cc2)NC(=O)[C@H](C)NC(=O)[C@H](Cc2ccc(F)cc2)NC(=O)[C@H](CC(C)C)NC(=O)[C@H](CCCCN)NC1=O | PAMPA | 200 µM | 5 h | pH 7.4 | 0.0226 ×10⁻⁶ cm/s
O=C(NCC(F)(F)F)c1cccc(N2Cc3cn(Cc4ccc(F)cc4)nc3C2)c1 | MDCK-MDR1 |  |  |  | 3.4 ×10⁻⁶ cm/s
CC(C)COC(=O)c1ccc(O)cc1 | PAMPA | 5 µM |  | pH 7.4 | 5.15 ×10⁻⁶ cm/s
CC[C@H](C)[C@@H]1NC(=O)[C@H](Cc2ccc(O)cc2)NC(=O)CSC[C@@H](C(N)=O)NC(=O)[C@H](CC(N)=O)NC(=O)[C@H](Cc2cnc[nH]2)NC(=O)[C@H](Cc2ccc(O)cc2)NC(=O)[C@H](CC(=O)O)NC(=O)[C@H](Cc2ccc(O)cc2)NC(=O)[C@H](CC(C)C)NC(=O)[C@H](CCCNC(=N)N)NC1=O | PAMPA | 200 µM | 5 h | pH 7.4 | 0.0419 ×10⁻⁶ cm/s
CN(C)C(=O)c1ccnc(N2Cc3cn(Cc4ccc(Cl)cc4)nc3C2)n1 | MDCK-MDR1 |  |  |  | 65.5 ×10⁻⁶ cm/s
COc1ccc(CNc2ccc3c(c2)S(=O)(=O)CC3OC)cc1 (stereo not shown) | PAMPA-BBB |  |  | pH 7.4 | 18 ×10⁻⁶ cm/s
Cn1cnnc1C1CCN(c2ncccc2-c2cccnc2)CC1 | PAMPA-BBB | 10 µM | 4 h | pH 7.4 | 0.9 ×10⁻⁶ cm/s
Cc1cc(C(=O)N[C@@H](CC(=O)NC(C)(C)C)C(=O)NCCNC(=O)c2cccc(-n3cccn3)c2)no1 | PAMPA |  |  | pH 5 | 5.6 ×10⁻⁶ cm/s
O=C(Oc1ccccc1)c1ccc(O)cc1 | PAMPA | 5 µM |  | pH 7.4 | 5.35 ×10⁻⁶ cm/s

Repeated from above:
SMILES | matrix | concentration | time | pH | Papp
CN(C)C(=O)c1ccnc(N2Cc3cn(Cc4cc(F)cc(F)c4)nc3C2)n1 | MDCK-MDR1 |  |  |  | 30 ×10⁻⁶ cm/s
